Results pooled from the literature.
Values joined by “and” are separate records of one study, mostly repeats; a detail may differ. ± gives the spread as reported.
B1: TEPSIN W188S/D189S/E190S/L191S (Homo sapiens, UniProt Q96N21); chain MAAAPPLRDRLSFLHRLPILLKGTSDDDVPCPGYLFEEIAKISHESPGSSQCLLEYLLSRLHSSSGHGKLKVLKILLYLCSHGSSFFLLILKRNSAFIQEAAAFAGPPDPLHGNSLYQKVRAAAQDLGSTLFSDTVLPLAPSQPLGTPPATGMGSQARPHSTLQGFGYSKEHGRTAVRHQPGQAGGGSSSSDSGPSSQNSSQNSDLSRVSDSGSHSGSDSHSGASREPGDLAERVEVVALSDCQQELSLVRTVTRGPRAFLSREEAQHFIKACGLLNCEAVLQLLTCHLRGTSECTQLRALCAIASLGSSDLLPQEHILLRTRPWLQELSMGSPGPVTNKATKILRHFEASCGQLSPARGTSAEPGPTAALPGPSDLLTDAVPLPGSQVFLQPLSSTPVSSRSPAPSSGMPSSPVPTPPPDASPIPAPGDPSEAEARLAESRRWRPERIPGGTDSPKRGPSSCAWSRDSLFAGMELVACPRLVGAGAAAGESCPDAPRAPQTSSQRTAAKEPPGSEPSAFAFLNA
B2: MPK12 (Arabidopsis thaliana, UniProt Q8GYQ5); sequence looked up; chain MSGESSSGSTEHCIKVVPTHGGRYVQYNVYGQLFEVSRKYVPPIRPIGRGACGIVCAAVNSVTGEKVAIKKIGNAFDNIIDAKRTLREIKLLRHMDHENVITIKDIVRPPQRDIFNDVYIVYELMDTDLQRILRSNQTLTSDQCRFLVYQLLRGLKYVHSANILHRDLRPSNVLLNSKNELKIGDFGLARTTSDTDFMTEYVVTRWYRAPELLLNCSEYTAAIDIWSVGCILGEIMTGQPLFPGKDYVHQLRLITELVGSPDNSSLGFLRSDNARRYVRQLPRYPKQQFAARFPKMPTTAIDLLERMLVFDPNRRISVDEALGHAYLSPHHDVAKEPVCSTPFSFDFEHPSCTEEHIKELIYKESVKFNPDH
B3: sufS 1-406 (Escherichia coli, UniProt P77444); chain MIFSVDKVRADFPVLSREVNGLPLAYLDSAASAQKPSQVIDAEAEFYRHGYAAVHRGIHTLSAQATEKMENVRKRASLFINARSAEELVFVRGTTEGINLVANSWGNSNVRAGDNIIISQMEHHANIVPWQMLCARVGAELRVIPLNPDGTLQLETLPTLFDEKTRLLAITHVSNVLGTENPLAEMITLAHQHGAKVLVDGAQAVMHHPVDVQALDCDFYVFSGHKLYGPTGIGILYVKEALLQEMPPWEGGGSMIATVSLSEGTTWTKAPWRFEAGTPNTGGIIGLGAALEYVSALGLNNIAEYEQNLMHYALSQLESVPDLTLYGPQNRLGVIAFNLGKHHAYDVGSFLDNYGIAVRTGHHCAMPLMAYYNVPAMCRASLAMYNTHEEVDRLVTGLQRIHRLLG
B4: CYB5R4 (Homo sapiens, UniProt Q7L1T6); chain MLNVPSQSFPAPRSQQRVASGGRSKVPLKQGRSLMDWIRLTKSGKDLTGLKGRLIEVTEEELKKHNKKDDCWICIRGFVYNVSPYMEYHPGGEDELMRAAGSDGTELFDQVHRWVNYESMLKECLVGRMAIKPAVLKDYREEEKKVLNGMLPKSQVTDTLAKEGPSYPSYDWFQTDSLVTIAIYTKQKDINLDSIIVDHQNDSFRAETIIKDCLYLIHIGLSHEVQEDFSVRVVESVGKIEIVLQKKENTSWDFLGHPLKNHNSLIPRKDTGLYYRKCQLISKEDVTHDTRLFCLMLPPSTHLQVPIGQHVYLKLPITGTEIVKPYTPVSGSLLSEFKEPVLPNNKYIYFLIKIYPTGLFTPELDRLQIGDFVSVSSPEGNFKISKFQELEDLFLLAAGTGFTPMVKILNYALTDIPSLRKVKLMFFNKTEDDIIWRSQLEKLAFKDKRLDVEFVLSAPISEWNGKQGHISPALLSEFLKRNLDKSKVLVCICGPVPFTEQGVRLLHDLNFSKNEIHSFTA
B5: PI4KB E667K (Homo sapiens, UniProt Q9UBF8-2); sequence looked up; chain MGDTVVEPAPLKPTSEPTSGPPGNNGGSLLSVITEGVGELSVIDPEVAQKACQEVLEKVKLLHGGVAVSSRGTPLELVNGDGVDSEIRCLDDPPAQIREEEDEMGAAVASGTAKGARRRRQNNSAKQSWLLRLFESKLFDISMAISYLYNSKEPGVQAYIGNRLFCFRNEDVDFYLPQLLNMYIHMDEDVGDAIKPYIVHRCRQSINFSLQCALLLGAYSSDMHISTQRHSRGTKLRKLILSDELKPAHRKRELPSLSPAPDTGLSPSKRTHQRSKSDATASISLSSNLKRTASNPKVENEDEPVRLAPEREFIKSLMAIGKRLATLPTKEQKTQRLISELSLLNHKLPARVWLPTAGFDHHVVRVPHTQAVVLNSKDKAPYLIYVEVLECENFDTTSVPARIPENRIRSTRSVENLPECGITHEQRAGSFSTVPNYDNDDEAWSVDDIGELQVELPEVHTNSCDNISQFSVDSITSQESKEPVFIAAGDIRRRLSEQLAHTPTAFKRDPEDPSAVALKEPWQEKVRRIREGSPYGHLPNWRLLSVIVKCGDDLRQELLAFQVLKQLQSIWEQERVPLWIKPYKILVISADSGMIEPVVNAVSIHQVKKQSQLSLLDYFLQEHGSYTTEAFLSAQRNFVQSCAGYCLVCYLLQVKDRHNGNILLDAKGHIIHIDFGFILSSSPRNLGFETSAFKLTTEFVDVMGGLDGDMFNYYKMLMLQGLIAARKHMDKVVQIVEIMQQGSQLPCFHGSSTIRNLKERFHMSMTEEQLQLLVEQMVDGSMRSITTKLYDGFQYLTNGIM
B6: fbf-2 121-632 (Caenorhabditis elegans, UniProt Q09312); sequence looked up; chain DFSQNVRCFSADIDRSKSYGSSKHYHLKYSRPALSRNSRSFTRSNNVLPTWSLDSNGEMRSRLSLSEVLDSGDLMKFAVDKTGCQFLEKAVKGSLTSYQKFQLFEQVIGRKDDFLKLSTNIFGNYLVQSVIGISLATNDDGYTKRQEKLKNFISSQMTDMCLDKFACRVIQSSLQNMDLSLACKLVQALPRDARLIAICVDQNANHVIQKVVAVIPLKNWEFIVDFVATPEHLRQICSDKYGCRVVQTIIEKLTADSMNVDLTSAAQNLRERALQRLMTSVTNRCQELATNEYANYIIQHIVSNDDLAVYRECIIEKCLMRNLLSLSQEKFASHVVEKAFLHAPLELLAEMMDEIFDGYIPHPDTGKDALDIMMFHQFGNYVVQCMLTICCDAVSGRRQTKEGGYDHAISFQDWLKKLHSRVTKERHRLSRFSSGKKMIETLANLRSTHPIYELQSSGHDSFKTDYFSTASEHDGPELEKNGIEEGSLMLEPRSNKSSVSVKFSSSGSHGDD
B7: Fhl2 (Mus musculus, UniProt O70433); sequence looked up; chain MTERFDCHHCNESLYGKKYILKEENPHCVACFEELYANTCEECGTPIGCDCKDLSYKDRHWHEGCFHCSRCGSSLVDKPFAAKEEQLLCTDCYSNEYSSKCQECKKTIMPGTRKMEYKGSSWHETCFTCQRCQQPIGTKSFIPKENQNFCVPCYEKQYALQCVQCKKPITTGGVTYREQPWHKECFVCTACKKQLSGQRFTARDEFPYCLTCFCDLYAKKCAGCTNPISGLGGTKYISFEERQWHNDCFNCKKCSLSLVGRGFLTERDDILCPDCGKDI
B8: lat-1 32-136 (Caenorhabditis elegans, UniProt G5EDW2); chain TTDESGTISHTICDGEAAELSCPAGKVISIVLGNYGRFSVAVCLPDNDIVPSNINCQNHKTKSILEKKCNGDSMCYFTVDKKTFTEDPCPNTPKYLEVKYNCVVP
B9: Pot1 L261S (Mus musculus, UniProt Q91WC1); sequence looked up; chain MSLVSTAPYTYTPLNLLKEGTIANVYGVVKFFKPPYVSKGTDYCSVVTIVDQTNVKLTCMLFSGNYEALPIIYKVGDIVRFHRLKIQVYKNELQGINCSGFASLTFEGTVGMPVTARTSSKVFSFTPQDQKMVEALRVWASKHISASSTLVQLCDAQPMQYYDLTCQLLGKAQVDSTAFLLKVWDGTQTVLPSWRVSTQDLTFEGDLSHIERLQSLVVDILVYDNHVQVARSIEVGCFLRLYSLHTKLQPGNSETSSSESSRLEFHLHGGTSYGRGIRVLPDTSPCVDQLKKALEGANLPVTETSTGICQSENGDSSALSNSGSGAVSPYEEERCQQVSATILTNHQHLEKTPLCAILTQKAPQQYRVRAKLRSYLPRRLSQSVKLLCPKCHSVQEVPHGDSLDKILQDAATEAPDIKLKATSLYYSKVWTTEDQGGRQVAVHFVKNNGILPASSECLILIEGGRLCEVSKLSSKFHSVMPVRSGPESLELLTLSAPFLIQGKVHHYGCKQCSSLKPIQNLNSRFHKGPWTPSSVAEALGVVPLQYVFVMVFTLDDGTGVLEAYLKDSEHFFKIPASEVLTDDDLQRSLETIMDMICPPGIKVDAYPWLECLLKSYNVTIGTERRICYQIFDTTVAENVV
UniProt Q08874, sequence (whole entry, looked up): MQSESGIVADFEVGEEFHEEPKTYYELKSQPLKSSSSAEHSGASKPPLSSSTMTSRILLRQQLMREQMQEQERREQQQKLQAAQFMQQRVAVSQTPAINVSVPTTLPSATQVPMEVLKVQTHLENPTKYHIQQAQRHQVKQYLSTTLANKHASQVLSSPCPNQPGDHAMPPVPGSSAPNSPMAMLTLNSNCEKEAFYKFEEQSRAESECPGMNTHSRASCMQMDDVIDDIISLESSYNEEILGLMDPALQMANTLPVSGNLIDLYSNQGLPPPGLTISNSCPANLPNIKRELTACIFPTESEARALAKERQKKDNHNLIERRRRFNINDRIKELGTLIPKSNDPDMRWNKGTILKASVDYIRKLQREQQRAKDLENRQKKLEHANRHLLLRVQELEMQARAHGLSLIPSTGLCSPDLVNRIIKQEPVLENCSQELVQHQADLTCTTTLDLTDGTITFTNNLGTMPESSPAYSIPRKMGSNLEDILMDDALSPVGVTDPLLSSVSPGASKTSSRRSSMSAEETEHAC
UniProt Q14980, sequence (whole entry, looked up): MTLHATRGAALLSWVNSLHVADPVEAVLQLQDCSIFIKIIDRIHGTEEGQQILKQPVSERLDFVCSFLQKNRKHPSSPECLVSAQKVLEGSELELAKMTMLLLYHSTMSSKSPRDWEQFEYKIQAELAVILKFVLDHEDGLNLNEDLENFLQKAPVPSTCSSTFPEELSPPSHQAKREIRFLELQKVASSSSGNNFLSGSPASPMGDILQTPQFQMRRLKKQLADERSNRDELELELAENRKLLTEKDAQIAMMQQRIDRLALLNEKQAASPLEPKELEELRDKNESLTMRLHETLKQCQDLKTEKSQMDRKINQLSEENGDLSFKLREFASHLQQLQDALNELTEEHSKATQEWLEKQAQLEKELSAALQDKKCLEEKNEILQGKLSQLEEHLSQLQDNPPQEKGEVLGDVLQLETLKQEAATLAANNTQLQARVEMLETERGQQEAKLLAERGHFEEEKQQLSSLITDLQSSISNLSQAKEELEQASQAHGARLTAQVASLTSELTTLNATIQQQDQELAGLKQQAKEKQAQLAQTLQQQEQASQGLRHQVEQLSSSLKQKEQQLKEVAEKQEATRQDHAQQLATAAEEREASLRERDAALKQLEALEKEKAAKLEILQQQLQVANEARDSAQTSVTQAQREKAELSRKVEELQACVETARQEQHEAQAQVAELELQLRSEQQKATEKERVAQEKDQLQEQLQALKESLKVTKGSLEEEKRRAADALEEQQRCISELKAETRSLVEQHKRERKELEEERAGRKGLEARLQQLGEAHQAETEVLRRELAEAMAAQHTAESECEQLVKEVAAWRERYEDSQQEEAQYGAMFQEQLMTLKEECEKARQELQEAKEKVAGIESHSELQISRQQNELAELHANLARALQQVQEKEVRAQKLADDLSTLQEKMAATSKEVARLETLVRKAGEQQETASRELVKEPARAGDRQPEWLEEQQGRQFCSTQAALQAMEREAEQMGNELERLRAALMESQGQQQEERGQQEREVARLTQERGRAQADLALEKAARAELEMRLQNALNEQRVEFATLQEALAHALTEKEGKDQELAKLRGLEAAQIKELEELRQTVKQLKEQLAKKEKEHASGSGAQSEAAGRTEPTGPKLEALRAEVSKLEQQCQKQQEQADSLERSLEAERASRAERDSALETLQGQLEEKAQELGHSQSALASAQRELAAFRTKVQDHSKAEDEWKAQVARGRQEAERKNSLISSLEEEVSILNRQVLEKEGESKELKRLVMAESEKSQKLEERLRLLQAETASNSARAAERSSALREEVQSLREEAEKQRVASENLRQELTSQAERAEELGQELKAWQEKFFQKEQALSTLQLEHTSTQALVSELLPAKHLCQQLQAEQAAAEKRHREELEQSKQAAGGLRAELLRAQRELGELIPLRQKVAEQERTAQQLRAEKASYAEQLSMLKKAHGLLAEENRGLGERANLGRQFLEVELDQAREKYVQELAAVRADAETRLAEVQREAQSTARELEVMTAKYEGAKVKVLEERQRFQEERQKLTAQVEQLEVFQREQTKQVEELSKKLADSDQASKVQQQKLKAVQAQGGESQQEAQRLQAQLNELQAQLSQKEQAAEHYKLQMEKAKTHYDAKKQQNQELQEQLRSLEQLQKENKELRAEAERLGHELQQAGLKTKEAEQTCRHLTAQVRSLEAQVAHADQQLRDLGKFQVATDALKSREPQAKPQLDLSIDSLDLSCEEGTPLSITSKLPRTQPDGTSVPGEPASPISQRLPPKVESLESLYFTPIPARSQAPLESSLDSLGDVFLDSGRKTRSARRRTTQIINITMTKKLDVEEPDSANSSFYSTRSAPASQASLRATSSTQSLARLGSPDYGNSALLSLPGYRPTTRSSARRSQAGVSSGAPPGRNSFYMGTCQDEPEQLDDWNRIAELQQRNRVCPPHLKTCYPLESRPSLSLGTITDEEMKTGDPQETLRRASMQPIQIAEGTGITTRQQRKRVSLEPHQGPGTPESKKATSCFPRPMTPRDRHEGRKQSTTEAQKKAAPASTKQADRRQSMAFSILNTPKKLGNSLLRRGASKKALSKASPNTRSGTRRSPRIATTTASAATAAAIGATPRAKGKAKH
UniProt Q86YC2, sequence (whole entry, unmodified, looked up): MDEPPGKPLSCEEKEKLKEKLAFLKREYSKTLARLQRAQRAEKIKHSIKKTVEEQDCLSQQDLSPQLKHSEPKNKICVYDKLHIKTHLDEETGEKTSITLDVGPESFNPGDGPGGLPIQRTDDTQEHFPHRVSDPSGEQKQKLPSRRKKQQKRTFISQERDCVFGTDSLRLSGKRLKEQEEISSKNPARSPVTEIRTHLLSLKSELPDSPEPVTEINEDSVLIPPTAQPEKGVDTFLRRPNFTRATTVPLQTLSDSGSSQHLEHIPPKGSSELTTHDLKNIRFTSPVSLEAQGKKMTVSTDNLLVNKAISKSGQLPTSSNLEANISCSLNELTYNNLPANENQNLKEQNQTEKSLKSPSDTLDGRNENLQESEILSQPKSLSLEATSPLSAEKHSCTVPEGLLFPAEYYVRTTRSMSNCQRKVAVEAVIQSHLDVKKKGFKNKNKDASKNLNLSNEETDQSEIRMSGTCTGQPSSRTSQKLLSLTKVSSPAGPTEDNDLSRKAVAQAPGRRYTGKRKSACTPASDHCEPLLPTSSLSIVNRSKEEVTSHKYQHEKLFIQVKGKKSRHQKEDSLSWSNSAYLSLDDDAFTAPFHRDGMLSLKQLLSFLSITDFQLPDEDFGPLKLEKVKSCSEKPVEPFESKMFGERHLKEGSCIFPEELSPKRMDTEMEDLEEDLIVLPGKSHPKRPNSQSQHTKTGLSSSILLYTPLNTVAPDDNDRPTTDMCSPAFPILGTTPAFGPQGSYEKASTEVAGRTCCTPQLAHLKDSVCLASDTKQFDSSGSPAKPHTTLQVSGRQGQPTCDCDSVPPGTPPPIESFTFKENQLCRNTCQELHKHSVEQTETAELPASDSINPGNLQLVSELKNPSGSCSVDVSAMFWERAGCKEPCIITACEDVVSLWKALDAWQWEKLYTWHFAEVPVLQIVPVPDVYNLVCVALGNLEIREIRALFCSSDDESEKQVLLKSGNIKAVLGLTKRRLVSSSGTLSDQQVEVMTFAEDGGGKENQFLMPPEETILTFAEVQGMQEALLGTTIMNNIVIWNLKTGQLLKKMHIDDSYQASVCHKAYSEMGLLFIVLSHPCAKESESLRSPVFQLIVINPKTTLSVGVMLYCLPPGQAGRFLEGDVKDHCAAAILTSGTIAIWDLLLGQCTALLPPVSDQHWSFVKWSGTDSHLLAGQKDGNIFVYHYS
UniProt P76194, sequence (whole entry, unmodified, looked up): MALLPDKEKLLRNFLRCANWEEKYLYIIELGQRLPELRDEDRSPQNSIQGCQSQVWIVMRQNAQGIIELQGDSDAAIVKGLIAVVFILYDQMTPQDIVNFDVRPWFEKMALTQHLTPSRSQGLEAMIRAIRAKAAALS
UniProt P62491, sequence (whole entry, looked up): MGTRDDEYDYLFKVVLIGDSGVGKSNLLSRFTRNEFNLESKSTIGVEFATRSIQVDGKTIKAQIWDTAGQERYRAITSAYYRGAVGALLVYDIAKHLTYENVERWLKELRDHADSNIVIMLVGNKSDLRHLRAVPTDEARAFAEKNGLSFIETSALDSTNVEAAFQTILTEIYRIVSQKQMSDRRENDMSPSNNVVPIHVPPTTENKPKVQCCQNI
UniProt P05783, sequence (whole entry, looked up): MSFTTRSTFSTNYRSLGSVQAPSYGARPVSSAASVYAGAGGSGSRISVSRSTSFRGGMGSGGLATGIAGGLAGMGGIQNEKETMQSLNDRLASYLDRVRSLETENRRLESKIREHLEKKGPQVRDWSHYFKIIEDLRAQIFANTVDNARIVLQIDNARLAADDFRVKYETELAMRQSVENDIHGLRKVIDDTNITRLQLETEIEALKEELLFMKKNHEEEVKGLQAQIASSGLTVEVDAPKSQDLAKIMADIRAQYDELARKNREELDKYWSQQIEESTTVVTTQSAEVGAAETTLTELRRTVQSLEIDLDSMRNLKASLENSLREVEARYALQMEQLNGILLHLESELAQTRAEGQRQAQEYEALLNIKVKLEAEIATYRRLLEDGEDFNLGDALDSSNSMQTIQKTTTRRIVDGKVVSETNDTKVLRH
UniProt Q5EE38, sequence (whole entry, looked up): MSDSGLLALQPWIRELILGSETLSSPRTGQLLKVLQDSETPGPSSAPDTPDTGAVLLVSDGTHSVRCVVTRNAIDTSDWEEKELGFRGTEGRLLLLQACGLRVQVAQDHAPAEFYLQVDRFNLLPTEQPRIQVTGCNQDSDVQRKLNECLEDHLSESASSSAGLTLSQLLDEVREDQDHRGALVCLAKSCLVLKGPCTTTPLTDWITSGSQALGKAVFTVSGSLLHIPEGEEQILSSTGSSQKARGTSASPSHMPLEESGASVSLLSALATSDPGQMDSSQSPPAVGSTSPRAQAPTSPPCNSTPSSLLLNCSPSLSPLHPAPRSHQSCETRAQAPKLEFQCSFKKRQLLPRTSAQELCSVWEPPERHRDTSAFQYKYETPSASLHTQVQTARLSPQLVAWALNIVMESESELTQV

The kon of `B1 (TEPSIN W188S/D189S/E190S/L191S)` is reported as 659 M⁻¹ s⁻¹ and 702 M⁻¹ s⁻¹ and 849 M⁻¹ s⁻¹ and 426 M⁻¹ s⁻¹ (MAP1LC3B 1-120 (Homo sapiens, UniProt Q9GZQ8); BLI).
`B2 (MPK12)`: “subunits per oligomer” 1 (HT1 (Arabidopsis thaliana, UniProt Q2MHE4); SEC).
For `YAEGTFISDYSIAMDKIRQQDFVNWLLAQKGKKNDWKHNLTQ (GIP (Rattus norvegicus, UniProt Q06145))`, the EC50 was 0.47 nM (Gipr (Rattus norvegicus, UniProt P43219); cAMP, agonist; peptide, HEK293; FRET biosensor, stably transfected).
Under “subunits per oligomer”, `B3 (sufS 1-406)` is recorded as 1 (sufE 1-138 C51A/E107C (Escherichia coli, UniProt P76194); crystal structure).
The Ka of `DYNLRB1/DYNLL1/DYNLT1/DYNC1LI2/DYNC1I2/DYNC1H1 dynein-1 complex (Homo sapiens)` is reported as greater than 1.6e+06 M⁻¹ (NINL/HOOK3 chimera NINL CC, Hook3 LIC-BD, HaloTag; pull-down).
For `ALB (Homo sapiens, UniProt P02768)`, cross-linked residues read “K161 to K136” (EMC2 (Homo sapiens, UniProt Q15006); cross-linking MS; together with: DSSO).
`B4 (CYB5R4)` gave a time of greater than 200 s (CYGB R84E (Homo sapiens, UniProt Q8WWM9); NO dioxygenation; 750 nM, 37 °C, R84E, together with: NADH 200 µM).
`B5 (PI4KB E667K)` has a relative binding of 2.7 fold (RAB11A (Homo sapiens, UniProt P62491); co-IP; HEK-293T; relative to: wild type, higher = more binding).
Under “LacZ activity decrease”, `B6 (fbf-2 121-632)` is recorded as 3 fold (gld-3 850-900 P869A (Caenorhabditis elegans, UniProt Q95ZK7); LacZ luminescence, yeast two-hybrid; relative to: wild-type GLD-3, higher = lower activity).
Under “chemical shift perturbation”, `PSPHGTRRHLPSPP (SOS1 proline-rich peptide, 1264-1277)` is recorded as 0.05 ppm (GRB2 156-215 (Homo sapiens, UniProt P62993); NMR titration; peptide).
For `FGB (Homo sapiens, UniProt P02675)`, cross-linked residues read “K77 to K4060” (AHNAK2 (Homo sapiens, UniProt Q8IVF2); cross-linking MS; together with: DSSO).
`PALLD Ig3-Ig4 tandem del6 linker residues` — result for “bundled F-actin fraction”: 86.5% (ACTA1 F-actin (Oryctolagus cuniculus, UniProt P68135); low-speed co-sedimentation; 5 µM).
`B7 (Fhl2)` — result for “relative co-IP signal”: 5 fold (Mitf (Mus musculus, UniProt Q08874); co-IP; mouse heart lysates; endogenous; relative to: saline-treated mice, higher = more interaction).
`DYNC1H1 (Homo sapiens, UniProt Q14204)`: “cortical dynein loss half-time” 29.8 min (NUMA1 1-705 (Homo sapiens, UniProt Q14980); time-lapse imaging; Flp-In T-REx mitotic; PLK1 inhibition, together with: BI2536 10 µM).
`B8 (lat-1 32-136)` has a kon of 1.55e+06 M⁻¹ s⁻¹ (tol-1 extracellular region (Caenorhabditis elegans); SPR).
`MEKVQYLTRSAIRRASTIEMPQQARQKLQNLFINFCLILICLLLICIIVMLL (PLN fused to mCerulean3 or YFP (Homo sapiens, UniProt P26678))` — result for “association time constant”: 3.58 s (SERCA2a (UniProt P16615-2); FRET; in cells).
For `FGA (Homo sapiens, UniProt P02671)`, cross-linked residues read “K100 to K59” (CGRRF1 (Homo sapiens, UniProt Q99675); cross-linking MS; together with: DSSO).
For `B9 (Pot1 L261S)`, the relative affinity was 2 fold (Acd (Mus musculus, UniProt Q5EE38); co-IP; relative to: wild-type POT1a, higher = stronger binding).
For `KRT18 (Homo sapiens, UniProt P05783)`, cross-linked residues read “K407 to K603” (COPB1 (Homo sapiens, UniProt P53618); cross-linking MS; cells; together with: iqPIR).
`TAH11 (Saccharomyces cerevisiae, UniProt P47112)`: interaction screen “cross-linked” (MCM6 (Saccharomyces cerevisiae, UniProt P53091); cross-linking MS; hits only).
For `FGG (Homo sapiens, UniProt P02679)`, cross-linked residues read “K231 to K1514” (CNTRL (Homo sapiens, UniProt Q7Z7A1); cross-linking MS; together with: DSSO).
For `BRCA1 coiled-coil domain (Homo sapiens)`, the ΔH was -1.5 ± 0.06 kcal/mol (PALB2 1-56 (Homo sapiens, UniProt Q86YC2); ITC).

For quick reference, copied from above:
`B7 (Fhl2)` — result for “relative co-IP signal”: 5 fold (Mitf (Mus musculus, UniProt Q08874); co-IP; mouse heart lysates; endogenous; relative to: saline-treated mice, higher = more interaction).
`MEKVQYLTRSAIRRASTIEMPQQARQKLQNLFINFCLILICLLLICIIVMLL (PLN fused to mCerulean3 or YFP (Homo sapiens, UniProt P26678))` — result for “association time constant”: 3.58 s (SERCA2a (UniProt P16615-2); FRET; in cells).
